Published values pooled from the literature.
Every numbered part comes from another study and shows a few of its results, in no order. Substitutions count along the parent as printed.

Series 1
Target: Phosphate system positive regulatory protein PHO4, full length, GST-tagged (PHO4, Saccharomyces cerevisiae, UniProt P07270, residues 1-312)
Technique: competition protein-binding microarray
Form: double-stranded DNA, one strand shown
Sample: in vitro
Concentration: 2 µM
Setting: whole 60-bp probe, lowest competitor level
With: Cbf1 competitor, 0.05 µM
Direction: higher = stronger binding
Target sequence (chain): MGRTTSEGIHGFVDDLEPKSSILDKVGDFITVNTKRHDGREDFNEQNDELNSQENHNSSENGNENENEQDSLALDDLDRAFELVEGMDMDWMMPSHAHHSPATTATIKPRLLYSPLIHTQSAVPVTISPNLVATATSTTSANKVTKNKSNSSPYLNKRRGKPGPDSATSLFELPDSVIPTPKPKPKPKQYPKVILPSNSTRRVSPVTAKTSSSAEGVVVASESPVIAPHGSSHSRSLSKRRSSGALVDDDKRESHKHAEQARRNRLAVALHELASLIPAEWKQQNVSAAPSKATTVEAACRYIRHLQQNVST
`CTTTCCCGATCTTGTCACGAAACTTTAGCACATTTGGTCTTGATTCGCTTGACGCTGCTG` has a fluorescence intensity of 4290 a.u.
`CGTCCTAGTGATTTTCACGTGTCCTCCATGAGGAAGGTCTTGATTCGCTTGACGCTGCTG` gave a fluorescence intensity of 13500 a.u.
`TGTGGATCATATCTCATATCTTCACATATACGAACAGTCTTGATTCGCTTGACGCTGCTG` gave a fluorescence intensity of 3430 a.u.
`CCAATCACCGTTCCACGCGTGCAAATCTCTATGACAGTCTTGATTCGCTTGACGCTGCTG` gave a fluorescence intensity of 9520 a.u.
The fluorescence intensity of `TATATAGTAGATCAACTCGTGCTTTGCTGGCTATAAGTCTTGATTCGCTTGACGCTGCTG` is reported as 10800 a.u.
`GAGGCTTGGCAGTTCCACGTGGAAGACCTGACGGAGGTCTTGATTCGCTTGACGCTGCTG` has a fluorescence intensity of 15700 a.u.
The fluorescence intensity of `CTTCTGTAAATTTGTCACGCAACTTGACGCGCCCCGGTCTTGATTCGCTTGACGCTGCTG` is reported as 4610 a.u.

Series 2
Target: CCNA1, cyclin fold, Cln2 fusion (human)
Technique: yeast growth competition, sequencing
Sample: yeast
Setting: weak parent motif
Relative to: not given
Direction: higher = stronger binding
Parent: ORC1 docking peptide (human); PRARKRLELGNLG; partner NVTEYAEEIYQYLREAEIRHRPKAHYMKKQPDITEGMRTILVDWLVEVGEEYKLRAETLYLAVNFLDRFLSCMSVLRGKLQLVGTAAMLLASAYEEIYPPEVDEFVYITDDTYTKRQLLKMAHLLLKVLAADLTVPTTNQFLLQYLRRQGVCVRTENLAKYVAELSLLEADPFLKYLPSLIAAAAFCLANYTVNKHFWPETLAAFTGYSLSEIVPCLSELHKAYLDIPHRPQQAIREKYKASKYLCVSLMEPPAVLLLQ
For `R2T`, “normalised enrichment score” read 0.568.
`R2G`: “normalised enrichment score” 0.319.
Under “normalised enrichment score”, `G10L` is recorded as 0.679.
Under “normalised enrichment score”, `K5S` is recorded as 0.149.
For `K5D`, “normalised enrichment score” read 0.369.
For `R6E`, “normalised enrichment score” read 0.175.
`L12P` — result for “normalised enrichment score”: 0.581.
For `L12F`, “normalised enrichment score” read 0.363.
For `G10Y`, “normalised enrichment score” read 0.969.

Series 3
Target: Histone acetyltransferase KAT6A, both winged helices, GST fusion (KAT6A, Homo sapiens, UniProt Q92794, residues 1-181)
Technique: protein binding microarray
Form: double-stranded DNA, one strand shown
Sample: in vitro
Concentration: not given
Setting: 8-mer, flanks averaged, mean of 2 arrays, mostly near background
Relative to: not given
Direction: higher = stronger binding
Construct (chain): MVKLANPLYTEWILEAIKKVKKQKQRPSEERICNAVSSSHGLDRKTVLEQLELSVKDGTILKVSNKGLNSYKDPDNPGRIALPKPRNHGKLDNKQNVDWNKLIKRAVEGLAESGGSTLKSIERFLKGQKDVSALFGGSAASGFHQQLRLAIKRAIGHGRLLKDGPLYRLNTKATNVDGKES
`ATTTGTGA` gave an E-score of -0.0436.
With `CGAGTACG` the E-score was 0.158.
With `ACCGTCGT` the E-score was 0.0899.
`CGAGGGAA` has an E-score of -0.0727.
`ACTCGGGA` gave an E-score of 0.0654.
With `CACTTAGG` the E-score was -0.189.
With `CTCTTGCA` the E-score was -0.16.
`ATACGGGA` has an E-score of 0.295.

Single results of other studies
`PhoQ, residues 284 288 289 292 302 303 TLASMF` has a fold induction of 2.17 (PhoP, residues 12 14 15 18 19 SQCLL (Escherichia coli, UniProt P23836); Sort-seq, refers to: YFP reporter; E. coli; PhoQ-PhoP variant library, with: 10 µM Mg2+; relative to: high Mg2+ state, higher = stronger signaling).

A few entries again (series 1):
`CGTCCTAGTGATTTTCACGTGTCCTCCATGAGGAAGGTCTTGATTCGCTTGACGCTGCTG` gave a fluorescence intensity of 13500 a.u.
`CTTTCCCGATCTTGTCACGAAACTTTAGCACATTTGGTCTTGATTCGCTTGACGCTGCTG` has a fluorescence intensity of 4290 a.u.
`CCAATCACCGTTCCACGCGTGCAAATCTCTATGACAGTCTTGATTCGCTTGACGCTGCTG` gave a fluorescence intensity of 9520 a.u.
